Measurements pooled from the literature.
A part holds a random share of what one study measured. Positions count from the first letter of the parent shown.

Series 1 — target: UBE2J2 UBC core domain (UniProt Q8N2K1); method: yeast two-hybrid; medium: yeast; setting: mostly zero background; baseline: not given; direction: higher = stronger interaction
B1: ARIH2 RING domain (UniProt O95376); chain HVPTSHPPHHCAVCMQFVRKENLLSLACQHQFCRSCWEQHCSVLVKDGVGVGVSCMAQDCPLRTPEDFVF
B2: HLTF RING domain (UniProt Q14527); chain LILSSGSDEECAICLDSLTVPVITHCAHVFCKPCICQVIQNEQPHAKCPLCRNDIHEDNLLE
B3: RNF186 RING domain (UniProt Q9NXI6); chain HSGSTECDLECLVCREPYSCPRLPKLLACQHAFCAICLKLLLCVQDNTWSITCPLCRKVTAVPGGLI
B4: RING1 RING domain (UniProt Q06587); chain SPRSLHSELMCPICLDMLKNTMTTKECLHRFCSDCIVTALRSGNKECPTCRKKLVSKRSLR
B5: NFX1 RING domain (UniProt Q12986); chain IEQLTTEKYECMVCCELVRVTAPVWSCQSCYHVFHLNCIKKWARSPASQADGQSGWRCPACQNVSAHVPNTY
B6: MARCHF1 RING domain (UniProt Q8TCQ1); chain TAPRSQSRLSVCPSTQDICRICHCEGDEESPLITPCRCTGTLRFVHQSCLHQWIKSSDTRCCELCKYDFIMETKLKPLRKWE
B7: ZNRF4 RING domain (UniProt Q8WWF5); chain VRTFTWHNDLCAICLDEYEEGDQLKILPCSHTYHCKCIDPWFSQAPRRSCPVCKQSVAATEDSF
B8: BFAR RING domain (UniProt Q9NZS9); chain GPQISVSEFSCHCCYDILVNPTTLNCGHSFCRHCLALWWASSKKTECPECREKWEGFPKVS
B9: CNOT4 RING domain (UniProt O95628); chain MSRSPDAKEDPVECPLCMEPLEIDDINFFPCTCGYQICRFCWHRIRTDENGLCPACRKPYPED
B10: VPS8 RING domain (UniProt Q8N3P4); chain TRGLNPKQDYCSICLQQYKRRQEMADEIIVFSCGHLYHSFCLQNKECTVEFEGQTRWTCYKCSSSNKVGKLSE
Construct (chain): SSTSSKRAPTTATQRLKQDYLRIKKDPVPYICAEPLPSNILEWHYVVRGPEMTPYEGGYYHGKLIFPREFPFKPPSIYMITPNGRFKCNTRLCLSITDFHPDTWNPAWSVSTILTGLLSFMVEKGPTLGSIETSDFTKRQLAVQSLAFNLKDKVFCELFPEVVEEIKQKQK
Sequence | lacZ reporter activity
EIKEYKARLTCPCCNTRKKDAVLTKCFHVFCFECVRGRYEARQRKCPKCNAAFGAHDFHR (RNF40 RING domain (UniProt O75150)) | 0
ASEEEFQFLRCQQCQAEAKCPKLLPCLHTLCSGCLEASGMQCPICQAPWPLGADTP (PML RING domain (UniProt P29590)) | 0
B1 (ARIH2 RING domain) | 0
B2 (HLTF RING domain) | 0
B3 (RNF186 RING domain) | 9100
FAEQPSVKLCCQLCCSVFKDPVITTCGHTFCRRCALKSEKCPVDNVKLTVVVNNI (TRAF7 RING domain (UniProt Q6Q0C0)) | 0
B4 (RING1 RING domain) | 0
B5 (NFX1 RING domain) | 0
ASPKIFQKTKCSICNSALELPSVHFLCGHSFHQHCFESYSESDADCPTCLPENRKVMDMI (VPS11 RING domain (UniProt Q9H270)) | 0
B6 (MARCHF1 RING domain) | 0
LVKDFNPYITCYICKGYLIKPTTVTECLHTFCKTCIVQHFEDSNDCPRCGNQVHETNPLE (PCGF5 RING domain (UniProt Q86SE9)) | 0
B7 (ZNRF4 RING domain) | 0
B8 (BFAR RING domain) | 0
B9 (CNOT4 RING domain) | 0
B10 (VPS8 RING domain) | 0

Series 2 — method: DHFR PCA, deep sequencing; medium: yeast; added: (+)-ABA 0.032 µM; baseline: wild-type fitted maximum; direction: higher = stronger binding
Target: ABI1, truncated, D143A, DHFR fusion (Arabidopsis thaliana)
Setting: methotrexate growth selection, single substitutions
Parent: PYL1, truncated, DHFR fusion (Arabidopsis thaliana); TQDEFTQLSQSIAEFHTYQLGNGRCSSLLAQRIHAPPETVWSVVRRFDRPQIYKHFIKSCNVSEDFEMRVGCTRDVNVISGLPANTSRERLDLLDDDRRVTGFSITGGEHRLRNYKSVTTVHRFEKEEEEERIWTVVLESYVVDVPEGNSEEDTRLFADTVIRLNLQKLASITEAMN
Change | relative binding score
N165T | 7.49%
S140I | -7.41%
M176D | 4.97%
S42K | 15.7%
H16W | -0.835%
V121A | 5.86%
V137G | 1.03%
R49D | 1.45%
S171Y | 10.4%
T154A | 3.41%
V70P | 29.4%
H55W | 44.5%
D65Q | 2.71%
G81Y | 1.89%
R132M | 35.3%
T173C | 59.7%

Series 3 — target: CCNE1, cyclin fold, Cln2 fusion (human); method: yeast growth competition, sequencing; medium: yeast; setting: strong parent motif; baseline: not given; direction: higher = stronger binding
Parent: DTL docking peptide (human); PSSMRKICTYFHR
Change | normalised enrichment score
R5A | 0.909
T9A | 0.817
K6A | 0.923
M4A | 0.702
H12A | 1.09
P1A | 0.69
Y10A | 0.786

Series 4 — method: RNAcompete; form: RNA; medium: in vitro; tested at: 20 nM; setting: 7-mer, probes averaged, single round; baseline: mean of 7-mers; direction: higher = stronger binding
Target: PABPC1L2, full length, GST fusion (mouse, UniProt A0ABA7IW68)
Target sequence (chain): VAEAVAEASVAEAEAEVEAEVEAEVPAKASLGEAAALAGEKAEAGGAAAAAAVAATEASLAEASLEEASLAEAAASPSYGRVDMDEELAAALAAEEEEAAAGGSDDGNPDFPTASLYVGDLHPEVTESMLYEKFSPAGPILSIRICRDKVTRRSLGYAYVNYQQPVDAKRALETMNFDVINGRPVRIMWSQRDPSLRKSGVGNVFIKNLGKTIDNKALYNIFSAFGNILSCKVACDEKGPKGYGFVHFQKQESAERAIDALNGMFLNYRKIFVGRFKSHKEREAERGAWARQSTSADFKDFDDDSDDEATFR
Strand | 7-mer Z-score
CGUUAUA | -0.278
CAUUACU | -0.141
GAAACCG | 0.0189
CCAUCGC | -0.371
CUUGGGU | -0.137
AGUGAUU | -0.144
AGCAUUA | -0.0681
GGGGAUG | 0.363
UCGCUCG | -0.38
AAGUGAC | 0.303
GAGCUCG | -0.353
UCCCCCG | -0.519
UUGAACU | -0.0428
CAGUUCG | -0.436
CAGUGAA | 0.017
CAUUUGU | -0.438
UCGUUCU | -0.447
GAGUGUU | -0.416

Series 5 — target: JUN, bZIP domain (human); method: DHFR protein complementation; medium: yeast; baseline: wild-type JUN-FOS pair; direction: higher = stronger binding
Setting: single substitutions, most at no-binding floor
Parent: JUN, bZIP domain (human); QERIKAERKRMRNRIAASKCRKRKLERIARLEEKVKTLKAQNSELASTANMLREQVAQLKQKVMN
Change | binding fitness
L38W | -1.3 natural log
L52C | -1.39 natural log
Q55P | -1.39 natural log
L38N | -1.28 natural log
L31P | -1.42 natural log
V35D | -1.39 natural log
M51P | -1.33 natural log
K36P | -1.31 natural log
I28D | -1.27 natural log
L38P | -1.33 natural log
L38E | -1.42 natural log
K39P | -1.27 natural log
L45R | -1.27 natural log
E54P | -1.22 natural log
L52H | -1.31 natural log

Series 6 — method: RNA Bind-n-Seq; form: RNA; medium: in vitro; tested at: 200 nM; setting: whole 134-nt RNA, ends assumed; added: 150 mM KCl; baseline: input library; direction: higher = stronger binding
Target: Fragile X messenger ribonucleoprotein 1, C-terminal low-complexity region (Fmr1, Mus musculus, UniProt P35922)
Shared flanks, not repeated: GGGAGUUCUACAGUCCGACGAUC … UGGAAUUCUCGGGUGUCAAGG
Strand | log2 enrichment
UCAAGUCCUGUGCUACACAUCGUAUGUACCGAAUCGGGGUGGGGUGGGGUGGGGAAAGUAUUAUGUUACGCCGUUCGGAUCUGCACUUCC | 1.23
CACAGACAACACGCACCCACACAGACACAGAGGGAAGCGGUUGGGAUGGGGACAGGGUGCACAGCAGGGCGGGGUAGGACCCCAGCCCCU | 1.45
CCUGUGCUACACAUCGUAUGUACCGAAUCGGGGUUUUUGGGGAAAGGGGUUUUUUUGGGGAAAGUAUUAUGUUACGCCGUUCGGAUCUGC | 0.316
AUUUCUCAGUUGAAGGAUGCUUACACUCUUGUCCAUCUAGACCUCAAUUACUGUUUUUCAGGAAUGUCUGAUCACAGAUACGGGGAUGGU | -0.89
CCUGUGCUACACAUCGUAUGUACCGAAUCGGGAAAAAAGGGGAAAAAAGGGGAAAAAAGGGAAAGUAUUAUGUUACGCCGUUCGGAUCUG | -0.576
UAACUUUAGAGGAGGAUCUGAUGGAUAUGGCAGUGGAGGUGGAUUUGGGGAUGGCUAUAAUGGGUAUGGAGGAGGACCUGGAGGUGGCAA | 0.339
CUCAAGUCCUGUGCUACACAUCGUAUGUACCGAAUCGGAGGUUUUUUUGGAGGAAAGUAUUAUGUUACGCCGUUCGGAUCUGCACUUCCA | -0.178
GCAGGAAGUAAAAACAAAUGGAAAUGCUUCGGAUAGUGGCAGGGGUGGGGGUUGCUAAGGAAAGGGUGGGAUGGGAGUGGGUAAAGAAAA | 0.0594
UCAAGUCCUGUGCUACACAUCGUAUGUACCGAAUCGGUUUGGUUUGGGUUUGGGAAAGUAUUAUGUUACGCCGUUCGGAUCUGCACUUCC | -0.552
UAACUUUAGAGGAGGAUCUGAUGGAUAUGGCAGUGGACGUGCAUUUGGGGAUGGCUAUAAUGGGUAUGGAGGAGGACCUGGAGGUGGCAA | 0.0835
CUCAAGUCCUGUGCUACACAUCGUAUGUACCGAAUCGGAAAGGUGGUUUUUGGAAAGUAUUAUGUUACGCCGUUCGGAUCUGCACUUCCA | -0.332
UGGCCCUGGUGGCAUGUGGGGAGGAAGAGGUGGCCUCAUGGAUCGUGGUGGUCCCGGUGGAAUGUUCAGAGGUGGCCGUGGUGGAGACAG | 0.127
GUCCUGUGCUACACAUCGUAUGUACCGAAUCGGCCCCCCGGGCCCCCCGGCCCCCCGGAAAGUAUUAUGUUACGCCGUUCGGAUCUGCAC | 0.154
CAAGUCCUGUGCUACACAUCGUAUGUACCGAAUCGGGGCCCGGGCCCGGCCCGGGAAAGUAUUAUGUUACGCCGUUCGGAUCUGCACUUC | -0.618
